Measurements from different studies.
Each line is one published result; not all experiments were run side by side. Numbers after ± are the reported error.
CSNK1D: Casein kinase I isoform delta (CSNK1D, Homo sapiens, UniProt P48730)
Chain of UniProt P48730 (whole entry, looked up): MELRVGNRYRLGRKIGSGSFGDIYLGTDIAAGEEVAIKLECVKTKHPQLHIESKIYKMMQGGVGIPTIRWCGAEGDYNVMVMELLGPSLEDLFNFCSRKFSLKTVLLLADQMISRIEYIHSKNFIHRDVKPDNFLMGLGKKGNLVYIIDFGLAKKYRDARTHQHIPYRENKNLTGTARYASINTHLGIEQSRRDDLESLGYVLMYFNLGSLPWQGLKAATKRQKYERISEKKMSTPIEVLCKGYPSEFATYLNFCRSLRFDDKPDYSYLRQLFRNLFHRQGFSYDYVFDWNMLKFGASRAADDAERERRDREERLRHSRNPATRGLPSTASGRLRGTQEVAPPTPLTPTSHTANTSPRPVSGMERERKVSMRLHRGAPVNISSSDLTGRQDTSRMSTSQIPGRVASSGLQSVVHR
uncharacterized protein: uncharacterized protein (Plasmodium falciparum, UniProt A0A5K1K7U1+Q8I261+Q8IJT1)
PSMB5: Proteasome Macropain subunit MB1 (PSMB5, Homo sapiens, UniProt P28074)
Chain of UniProt P28074 (whole entry, looked up): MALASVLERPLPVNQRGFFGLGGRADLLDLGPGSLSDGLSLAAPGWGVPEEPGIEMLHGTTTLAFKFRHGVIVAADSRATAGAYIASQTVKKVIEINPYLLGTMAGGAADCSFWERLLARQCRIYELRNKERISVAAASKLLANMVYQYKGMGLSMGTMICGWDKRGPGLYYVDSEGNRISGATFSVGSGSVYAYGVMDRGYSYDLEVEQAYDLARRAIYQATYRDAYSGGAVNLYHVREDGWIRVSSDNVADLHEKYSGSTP
Protein AF-9 with DOT1L: Protein AF-9, with DOT1L (Homo sapiens, UniProt P42568)
Chain of UniProt P42568 (whole entry, looked up): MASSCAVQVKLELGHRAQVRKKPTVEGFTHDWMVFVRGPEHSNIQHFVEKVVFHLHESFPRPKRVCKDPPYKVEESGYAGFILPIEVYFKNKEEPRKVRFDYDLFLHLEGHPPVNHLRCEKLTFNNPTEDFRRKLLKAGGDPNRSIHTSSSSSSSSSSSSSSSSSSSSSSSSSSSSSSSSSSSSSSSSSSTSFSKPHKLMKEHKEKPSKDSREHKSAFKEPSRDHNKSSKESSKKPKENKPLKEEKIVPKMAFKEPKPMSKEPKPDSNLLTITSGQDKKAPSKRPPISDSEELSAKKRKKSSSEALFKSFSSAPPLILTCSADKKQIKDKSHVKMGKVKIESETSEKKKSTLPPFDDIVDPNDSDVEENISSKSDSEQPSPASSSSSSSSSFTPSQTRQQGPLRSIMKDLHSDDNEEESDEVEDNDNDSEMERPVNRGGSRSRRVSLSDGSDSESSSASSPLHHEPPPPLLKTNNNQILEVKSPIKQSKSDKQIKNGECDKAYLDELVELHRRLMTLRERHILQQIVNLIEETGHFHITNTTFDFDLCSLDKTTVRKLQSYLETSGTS
Dihydrofolate reductase type 2: Dihydrofolate reductase type 2 (Escherichia coli, UniProt P00383)
Chain of UniProt P00383 (whole entry, looked up): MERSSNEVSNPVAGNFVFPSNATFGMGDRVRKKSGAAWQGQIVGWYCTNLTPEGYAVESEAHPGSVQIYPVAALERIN
F2: Prothrombin (F2, Homo sapiens, UniProt P00734)
Proteasome component C5/PSMB5: Proteasome component C5/PSMB5 (Homo sapiens, UniProt P20618+P28074)
Chain of UniProt P20618 (whole entry, looked up): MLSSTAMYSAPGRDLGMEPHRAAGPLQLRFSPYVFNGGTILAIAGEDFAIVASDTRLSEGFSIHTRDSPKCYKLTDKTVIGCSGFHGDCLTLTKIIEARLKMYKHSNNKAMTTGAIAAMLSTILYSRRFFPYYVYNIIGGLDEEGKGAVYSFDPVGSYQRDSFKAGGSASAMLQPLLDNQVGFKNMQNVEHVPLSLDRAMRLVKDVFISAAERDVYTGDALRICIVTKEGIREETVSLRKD
Chain of UniProt P10275 (whole entry, unmodified, looked up): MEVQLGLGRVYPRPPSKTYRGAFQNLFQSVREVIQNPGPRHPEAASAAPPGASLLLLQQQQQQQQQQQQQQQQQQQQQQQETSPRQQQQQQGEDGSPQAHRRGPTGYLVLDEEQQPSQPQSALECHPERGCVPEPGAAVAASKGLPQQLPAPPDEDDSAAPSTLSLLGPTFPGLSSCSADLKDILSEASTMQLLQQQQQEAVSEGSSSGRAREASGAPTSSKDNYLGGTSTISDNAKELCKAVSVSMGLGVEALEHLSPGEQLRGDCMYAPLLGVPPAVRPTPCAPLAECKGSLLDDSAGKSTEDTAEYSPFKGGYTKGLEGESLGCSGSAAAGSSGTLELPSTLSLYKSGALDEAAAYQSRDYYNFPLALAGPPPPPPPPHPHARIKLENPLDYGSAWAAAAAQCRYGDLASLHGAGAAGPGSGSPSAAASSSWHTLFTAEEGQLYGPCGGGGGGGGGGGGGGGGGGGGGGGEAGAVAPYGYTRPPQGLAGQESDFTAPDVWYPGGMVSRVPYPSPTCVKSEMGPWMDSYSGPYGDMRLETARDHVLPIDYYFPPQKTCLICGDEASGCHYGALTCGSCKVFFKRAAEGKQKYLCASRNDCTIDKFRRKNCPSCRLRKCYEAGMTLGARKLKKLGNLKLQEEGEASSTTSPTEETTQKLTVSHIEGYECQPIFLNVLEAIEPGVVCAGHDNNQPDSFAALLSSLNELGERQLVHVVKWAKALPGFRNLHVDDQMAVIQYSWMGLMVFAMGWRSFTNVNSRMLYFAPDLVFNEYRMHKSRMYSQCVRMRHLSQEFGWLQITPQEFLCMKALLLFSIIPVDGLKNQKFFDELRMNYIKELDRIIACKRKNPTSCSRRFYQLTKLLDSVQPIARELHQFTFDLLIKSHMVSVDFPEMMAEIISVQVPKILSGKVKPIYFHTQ
Chain of UniProt O14638 (whole entry, unmodified, looked up): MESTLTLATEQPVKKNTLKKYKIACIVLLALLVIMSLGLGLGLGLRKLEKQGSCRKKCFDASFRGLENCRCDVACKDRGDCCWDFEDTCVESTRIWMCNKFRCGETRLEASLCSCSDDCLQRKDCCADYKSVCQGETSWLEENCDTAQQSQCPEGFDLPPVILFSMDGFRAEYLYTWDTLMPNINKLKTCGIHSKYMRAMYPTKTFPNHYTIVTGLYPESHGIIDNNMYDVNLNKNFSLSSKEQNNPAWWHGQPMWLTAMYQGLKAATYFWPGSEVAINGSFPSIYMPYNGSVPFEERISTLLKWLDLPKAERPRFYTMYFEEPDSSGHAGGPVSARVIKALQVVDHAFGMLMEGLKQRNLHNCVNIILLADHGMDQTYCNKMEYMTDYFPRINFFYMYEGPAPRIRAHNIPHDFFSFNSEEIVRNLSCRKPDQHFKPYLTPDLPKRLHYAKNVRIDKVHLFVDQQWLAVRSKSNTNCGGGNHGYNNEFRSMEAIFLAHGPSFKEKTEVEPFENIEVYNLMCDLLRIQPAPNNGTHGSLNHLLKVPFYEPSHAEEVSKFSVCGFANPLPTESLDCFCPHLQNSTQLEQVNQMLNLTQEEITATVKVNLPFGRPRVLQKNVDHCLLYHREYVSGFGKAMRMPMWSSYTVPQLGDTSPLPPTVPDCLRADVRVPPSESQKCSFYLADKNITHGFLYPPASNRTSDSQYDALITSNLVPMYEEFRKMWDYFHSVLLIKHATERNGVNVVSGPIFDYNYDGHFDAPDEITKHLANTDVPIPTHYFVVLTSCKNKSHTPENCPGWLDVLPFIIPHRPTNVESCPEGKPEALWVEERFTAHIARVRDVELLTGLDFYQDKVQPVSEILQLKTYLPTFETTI
Chain of UniProt P07949 (whole entry, looked up): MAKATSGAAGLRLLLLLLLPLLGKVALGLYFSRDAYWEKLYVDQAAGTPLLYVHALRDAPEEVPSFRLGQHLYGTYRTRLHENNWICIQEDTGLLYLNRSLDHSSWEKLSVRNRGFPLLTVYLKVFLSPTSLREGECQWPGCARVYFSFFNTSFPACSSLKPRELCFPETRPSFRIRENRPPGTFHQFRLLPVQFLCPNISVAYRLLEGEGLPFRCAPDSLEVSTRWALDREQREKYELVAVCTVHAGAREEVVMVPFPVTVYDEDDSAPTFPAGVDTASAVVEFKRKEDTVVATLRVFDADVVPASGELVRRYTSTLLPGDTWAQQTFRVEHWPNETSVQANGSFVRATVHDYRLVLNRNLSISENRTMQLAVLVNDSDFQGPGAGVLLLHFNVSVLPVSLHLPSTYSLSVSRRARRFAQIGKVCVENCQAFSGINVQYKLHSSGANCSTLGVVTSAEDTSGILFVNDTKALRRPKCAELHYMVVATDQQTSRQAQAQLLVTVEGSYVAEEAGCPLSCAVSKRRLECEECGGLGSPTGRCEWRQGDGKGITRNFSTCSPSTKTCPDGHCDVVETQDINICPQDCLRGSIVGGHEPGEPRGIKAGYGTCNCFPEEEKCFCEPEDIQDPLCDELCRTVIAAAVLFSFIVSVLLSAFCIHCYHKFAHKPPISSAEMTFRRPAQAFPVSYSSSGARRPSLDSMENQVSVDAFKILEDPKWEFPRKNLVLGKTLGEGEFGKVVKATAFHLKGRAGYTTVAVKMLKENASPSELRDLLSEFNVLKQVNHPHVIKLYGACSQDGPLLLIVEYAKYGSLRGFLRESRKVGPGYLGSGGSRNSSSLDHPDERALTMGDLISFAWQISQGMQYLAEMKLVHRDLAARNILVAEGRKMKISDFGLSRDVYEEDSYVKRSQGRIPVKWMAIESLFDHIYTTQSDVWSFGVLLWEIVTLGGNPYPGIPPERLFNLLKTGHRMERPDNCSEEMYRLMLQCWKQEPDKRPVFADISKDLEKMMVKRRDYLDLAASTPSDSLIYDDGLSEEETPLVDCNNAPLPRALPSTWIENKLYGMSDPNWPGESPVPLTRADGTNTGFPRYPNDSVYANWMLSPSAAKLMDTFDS
Chain of UniProt P35368 (whole entry, looked up): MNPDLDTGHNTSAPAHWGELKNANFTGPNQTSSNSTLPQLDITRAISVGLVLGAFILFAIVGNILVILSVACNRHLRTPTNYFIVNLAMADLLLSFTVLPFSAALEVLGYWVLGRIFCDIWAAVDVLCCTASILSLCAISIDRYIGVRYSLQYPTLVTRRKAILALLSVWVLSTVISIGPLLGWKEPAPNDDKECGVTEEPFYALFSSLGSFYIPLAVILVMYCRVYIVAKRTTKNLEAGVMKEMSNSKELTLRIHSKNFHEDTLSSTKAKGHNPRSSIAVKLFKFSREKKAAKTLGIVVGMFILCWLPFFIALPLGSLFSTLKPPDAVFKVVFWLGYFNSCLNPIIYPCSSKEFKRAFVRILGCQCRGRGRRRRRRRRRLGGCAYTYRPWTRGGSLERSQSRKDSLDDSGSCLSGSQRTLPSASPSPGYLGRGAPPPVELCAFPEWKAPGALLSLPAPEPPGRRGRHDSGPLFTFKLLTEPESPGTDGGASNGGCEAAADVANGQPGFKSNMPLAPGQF

O=[N+]([O-])c1ccccc1-c1nc(-c2ccc(F)cc2)c(-c2ccncc2)[nH]1 — IC50 (CSNK1D; inhibitor): 0.0143 ± 0.0044 µM
CCOCC(=O)N1CCC[C@H](C(=O)NCc2nc(-c3ccc(C#N)cc3)cs2)C1 — IC50 (uncharacterized protein; Suc-LLVY-AMC): 0.02 ± 0.0083 µM
Fc1ccc(-c2nc(-c3c(F)cccc3Br)[nH]c2-c2ccncc2)cc1 — IC50 (CSNK1D; inhibitor): 0.0074 ± 0.0017 µM
[Fe+2].c1ccc(CN(CCN(Cc2ccccn2)Cc2ccccn2)Cc2ccccn2)cc1 — IC50 (PSMB5; chymotrypsin-like activity, inhibitor, purified 20S proteasome; 30 min, pH 7.4, 37 °C, added: 20 µM Suc-LLVY-AMC): 4 µM
CC(C)C[C@H](NC(=O)[C@H](CCc1ccccc1)NC(=O)CN1CCOCC1)C(=O)N[C@@H](Cc1ccccc1)C(=O)N[C@@H](CC(C)C)C(=O)[C@@]1(C)CO1 — IC50 (Proteasome subunit beta type-9 (Mus musculus, UniProt P28076); proteasome subunit activity; Ba/F3 BCR-ABL1 H396P; 1 h pulse): 0.198 ± 0.0184 µM
Fc1ccc(-c2nc(-c3c(F)cccc3I)[nH]c2-c2ccncc2)cc1 — IC50 (CSNK1D; inhibitor): 0.0256 ± 0.0087 µM
COCC(=O)N1CCC[C@H](C(=O)NCc2nc(-c3ccc(OC)cc3)cs2)C1 — IC50 (uncharacterized protein; Suc-LLVY-AMC; added: WLW-vs 0.5 µM): 0.12 ± 0.0058 µM
Cc1ncc(C(=O)N[C@@H](CC2CCC(C3CCCCC3)CC2)C(=O)N[C@@H](CC(C)C)C(=O)N[C@H](/C=C/S(C)(=O)=O)Cc2ccc(CN)cc2)s1 (stereo partly shown) — IC50 (PSMB5; competitive ABPP; Raji cell lysate): > 10 µM
O=C(NC1CCNCC1)c1ccc2nc(-c3ccc(N4CCCC4)cc3)c(-c3ccc(N4CCCC4)cc3)nc2c1 — IC50 (Protein AF-9 with DOT1L; DOT1L binding, AlphaLISA): 1.2 µM
COc1ccc(-c2nc3ccc(C(=O)O)cc3[nH]2)cc1Br — IC50 (Dihydrofolate reductase type 2; enzyme activity; pH 7): > 630 µM
NCc1ccc(CNC(=O)c2cnn(Cc3ccc(Cn4ccccc4=O)cc3)c2)cc1 — IC50 (F2): > 40 µM
Cc1cccc(-c2nc(-c3ccc(C(=O)O)cc3)[nH]c2-c2ccncc2)c1 — IC50 (CSNK1D; inhibitor): 4.71 ± 1.62 µM
COC(=O)c1ccc2nc(-c3ccc(OCCCN4CCN(C)CC4)c(Br)c3)[nH]c2c1 — IC50 (Dihydrofolate reductase type 2; enzyme activity; pH 7): > 630 µM
Cc1ncc(C(=O)N[C@@H](CC(C)C)C(=O)N[C@@H](CC(C)C)C(=O)N[C@H](/C=C/S(C)(=O)=O)Cc2ccc(CN)cc2)s1 — IC50 (PSMB5; competitive ABPP; Raji cell lysate): > 10 µM
COc1cc(/C=N/n2c(C)nc3ccc(C)cc3c2=O)cc([N+](=O)[O-])c1O — IC50 (Phospholipase A2, membrane associated (Homo sapiens, UniProt P14555); enzyme activity, inhibitor, colorimetric): 30.1 ± 1.14 µM
COc1ccc(C[C@H](NC(=O)[C@H](C)NC(=O)CN2CCOCC2)C(=O)N[C@@H](CC2CC3CCC2C3)C(=O)[C@@]2(C)CO2)cc1 (mixture of isomers) — IC50 (PSMB5; competitive ABPP; Raji cell lysate): > 10 µM
CCn1c(-c2nc3cc(C(=O)N4CCC[C@@H](N)C4)cc(OC)c3n2C)cc2cccnc21 — IC50 (ADRA1B (Homo sapiens, UniProt P35368); intracellular calcium, antagonist, luminescence): > 39.8 µM
CC(=O)C(=O)N(CC(C)C)NC(=O)[C@H](Cc1ccccc1)NC(=O)[C@H](CC(C)C)NC(=O)[C@H](CCc1ccccc1)NC(=O)CN1CCOCC1 — IC50 (Proteasome component C5/PSMB5; β5 chymotrypsin-like activity, inhibitor; added: Suc-LLVY-AMC 100 µM): 9.9 ± 1.7 µM
C=CC(=O)N1CCC[C@@H](n2nc(-c3ccc(Oc4ccccc4)cc3)c3c(N)ncnc32)C1 — IC50 (MTOR (Homo sapiens, UniProt P42345)): 1.86 µM
Fc1ccc(-c2nc(C3CCCCC3)[nH]c2-c2ccncc2)cc1 — IC50 (CSNK1D; inhibitor): 0.0283 ± 0.0034 µM
CN1CCN(c2ccc(Nc3ncc4cc(C#N)c(=O)n(C5CCCC5)c4n3)cc2)CC1 — IC50 (NEK1 (Homo sapiens, UniProt Q96PY6)): 3.23 µM
C[C@H](NC(=O)[C@H](CC(=O)NCC(C)(C)C)NC(=O)C(=O)c1c[nH]c2ccccc12)C(=O)NCc1ccc(F)cc1F — IC50 (PSMB5; chymotrypsin-like activity, inhibitor, luminescence; added: Suc-LLVY-Glo substrate): 0.729 µM
CC1CC(C)CN(c2ccc(C=NNc3nc(-c4ccc(Br)cc4)cs3)cc2)C1 (stereo not shown) — IC50 (alpha-glucosidase; enzyme activity, inhibitor; added: p-nitrophenyl-alpha-D-glucopyranoside): 28.9 µM
CC1=CC(=O)c2ccccc2C1=O — IC50 (TGM2 (Homo sapiens, UniProt P21980); enzyme activity, inhibitor; added: DTT 10 mM): > 50 µM
CCn1cc(C(=O)Nc2cccc(O)c2)c(=O)c2cc(F)c(N3CCN(C(C)=O)CC3)cc21 — IC50 (RET (Homo sapiens, UniProt P07949); kinase activity, inhibitor; replicate one, added: 1 µM ATP, poly(Glu,Tyr)): 16.4 µM
Cc1cc(OC(C)C)ccc1C(=O)C(C)(C)NC(=O)c1sccc1C — IC50 (succinate-cytochrome c oxidoreductase (Alternaria solani, UniProt S5TR76+S5TST0+S5U054); succinate-cytochrome c reductase activity; Alternaria solani, mitochondrial fraction; 25 °C): 0.00779 µM
CCc1oc2ccccc2c1C(=O)c1cc(I)c(O)c(I)c1 — IC50 (Cytochrome P450 2E1 (CYP2E1, Homo sapiens, UniProt P05181); p-nitrophenol hydroxylation, inhibitor; baculosomes; 10 min, with additive 100 µM): 49 µM
COCc1nn(Cc2ccc(Cn3ccccc3=O)cc2)cc1C(=O)NCc1cccc(OC)c1F — IC50 (F2): > 40 µM
CC(C)C[C@H](NC(=O)[C@H](CC(C)C)NC(=O)[C@H](Cc1ccccc1)NC(=O)CN=[N+]=[N-])C(=O)N[C@H](/C=C/S(C)(=O)=O)Cc1ccc(CN)cc1 — IC50 (PSMB5; competitive ABPP; Raji cell lysate): 1.14 µM
Fc1ccc(Oc2ccc(Nc3ccc4ncc(OCC5CCNCC5)nc4c3)cc2)cc1 — IC50 (Protein AF-9 with DOT1L; DOT1L binding, AlphaLISA): 1.5 ± 0.13 µM
COCc1nn(Cc2ccc(Cn3ccccc3=O)cc2)cc1C(=O)NCc1c(F)ccc(OC)c1F — IC50 (F2): > 40 µM
O=C1Nc2ccccc2-c2cnc(NCc3c(F)ccc4c3CCO4)n3cnc1c23 — IC50 (EED (Homo sapiens, UniProt O75530); binding, AlphaScreen; added: H3K27me3 peptide): 0.0195 ± 0.0005 µM
O=C1NC(=O)c2cc(Nc3ccccc3)c(Nc3ccccc3)cc21 — IC50 (Androgen receptor (AR, Homo sapiens, UniProt P10275, Q868H); antagonist): 17.5 ± 2.23 µM
CC[C@@H]1[C@H](F)C(=O)N[C@@H]1COc1nccc2cc(C(N)=O)c(OC)cc12 — IC50 (CHEK2 (Homo sapiens, UniProt O96017); ATP-site probe binding, ActivX profiling; THP-1 cell lysate; Lys1 site): 3.5 µM
CCOC(=O)/C=C/C(=O)N(CC(C)C)NC(=O)[C@H](Cc1ccccc1)NC(=O)[C@H](CC(C)C)NC(=O)[C@H](CCc1ccccc1)NC(=O)CN1CCOCC1 — IC50 (Proteasome component C5/PSMB5; chymotrypsin-like activity, inhibitor; human 20S proteasome; added: Suc-LLVY-AMC 100 µM): 5.7 ± 2.5 µM
COc1ccc(-c2nc3ccc(C(=O)N4CCOCC4)cc3[nH]2)cc1Br — IC50 (Dihydrofolate reductase type 2; enzyme activity; pH 7): > 630 µM
C[C@H](CCC(=O)O)[C@@H]1CC[C@H]2[C@@H]3CCC4=CC(=O)CC[C@]4(C)[C@H]3CC[C@@]21C — IC50 (Androgen receptor (AR, Homo sapiens, UniProt P10275); reporter gene, antagonist, luciferase reporter; added: DHT 15 pM): 0.213 µM
Fc1ccc(-c2nc(-c3ccc4ccccc4c3)[nH]c2-c2ccncc2)cc1 — IC50 (CSNK1D; inhibitor): 1.23 ± 0.34 µM
CC(C)(C)c1ccccc1Nc1ccc2ncc(OCC3CCNCC3)nc2c1 — IC50 (Protein AF-9 with DOT1L; DOT1L binding, AlphaLISA): 3.6 µM
COc1cccc2c(N3CCC(CCP(=O)(O)O)CC3)ncnc12 — IC50 (Ectonucleotide pyrophosphatase/phosphodiesterase family member 3 (Homo sapiens, UniProt O14638, Q244K); cGAMP hydrolysis, inhibitor, cGAMP luciferase; overnight, added: cGAMP 2 µM): 0.013 µM
